Results of several laboratories.
A part holds a random share of what one study measured.

Set 1
Target: Histone acetyltransferase KAT6A, both winged helices, GST fusion (KAT6A, Homo sapiens, UniProt Q92794, residues 1-181)
Method: protein binding microarray
Form: double-stranded DNA, one strand shown
Sample: in vitro
Tested at: not given
Setting: 8-mer, flanks averaged, mean of 2 arrays, mostly near background
Reference: not given
Reading: higher = stronger binding
Measurement: E-score
Construct (chain): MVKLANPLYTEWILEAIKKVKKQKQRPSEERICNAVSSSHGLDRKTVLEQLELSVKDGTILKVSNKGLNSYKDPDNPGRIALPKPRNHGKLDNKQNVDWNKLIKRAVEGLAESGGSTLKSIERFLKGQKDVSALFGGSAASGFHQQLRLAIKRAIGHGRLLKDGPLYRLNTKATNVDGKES
GACATGCC: 0.00745
GAGCTCGA: -0.0633
CGGAGTCA: 0.158
ATTGATTG: -0.00304
ACAGAGAT: -0.125
AACTACAA: 0.00186
CCGATGAA: 0.0853
GACATTTA: -0.0512
TATACCCA: -0.0808
CGCAGGGC: 0.0975
AGCTCCGG: 0.0014
GCTGCCTA: -0.179
AAAAGGCT: -0.143
TAGAGCCA: -0.169
ACTTTGTC: -0.202
AAGATACA: -0.155
ATCATTTA: -0.0109
AGACCTGA: -0.182
ATCGCGAG: 0.199
ATGGAGTG: -0.117

Set 2
Target: Sal-like protein 4, full length isoform A (SALL4, Homo sapiens, UniProt Q9UJQ4, residues 1-1053)
Sequence of UniProt Q9UJQ4 (whole entry, looked up): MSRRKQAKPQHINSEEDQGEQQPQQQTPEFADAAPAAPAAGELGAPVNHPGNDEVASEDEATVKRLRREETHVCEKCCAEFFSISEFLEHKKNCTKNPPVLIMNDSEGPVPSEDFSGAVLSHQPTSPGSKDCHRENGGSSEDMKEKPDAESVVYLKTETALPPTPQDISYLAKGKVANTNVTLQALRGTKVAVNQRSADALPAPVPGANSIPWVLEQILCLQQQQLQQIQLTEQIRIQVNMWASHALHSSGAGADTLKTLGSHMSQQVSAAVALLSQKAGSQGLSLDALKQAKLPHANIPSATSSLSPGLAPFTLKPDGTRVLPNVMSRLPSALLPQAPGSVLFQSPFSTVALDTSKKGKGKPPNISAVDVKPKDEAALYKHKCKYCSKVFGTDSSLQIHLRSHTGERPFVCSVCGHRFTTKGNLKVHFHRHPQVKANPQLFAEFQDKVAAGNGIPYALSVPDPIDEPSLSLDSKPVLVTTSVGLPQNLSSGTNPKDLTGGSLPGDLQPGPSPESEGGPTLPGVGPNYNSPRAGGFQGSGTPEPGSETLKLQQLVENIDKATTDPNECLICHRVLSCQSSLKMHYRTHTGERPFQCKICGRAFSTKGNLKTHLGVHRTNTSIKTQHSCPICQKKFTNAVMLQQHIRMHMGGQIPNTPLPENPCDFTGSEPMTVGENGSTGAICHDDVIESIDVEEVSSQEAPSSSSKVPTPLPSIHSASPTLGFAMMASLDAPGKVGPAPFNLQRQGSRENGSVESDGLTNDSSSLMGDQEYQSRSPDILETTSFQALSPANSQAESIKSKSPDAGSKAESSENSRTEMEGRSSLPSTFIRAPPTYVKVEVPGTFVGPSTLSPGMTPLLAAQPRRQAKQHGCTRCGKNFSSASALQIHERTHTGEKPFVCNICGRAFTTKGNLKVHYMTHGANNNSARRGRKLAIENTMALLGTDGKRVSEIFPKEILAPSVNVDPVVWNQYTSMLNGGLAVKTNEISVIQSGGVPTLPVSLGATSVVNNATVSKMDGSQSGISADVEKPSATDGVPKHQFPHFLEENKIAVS
Method: universal PBM
Form: double-stranded DNA, one strand shown
Sample: in vitro
Tested at: 600 nM
Setting: 8-mer, flanks averaged, mean of replicates
Reading: higher = stronger binding
Measurement: E-score
AGAGCTGA: -0.0484
ATTGCAGA: 0.216
CCATCTTA: -0.0633
CGACAACC: -0.222
GACCTTAC: -0.0346
CTCGAGGC: -0.245
ACTCTGGG: -0.216
GACTGAAC: -0.126
GCGGGTCA: -0.263
AGTACTTA: 0.111
AACAGACG: -0.0807
ACTCTACG: -0.114
AATATTCA: 0.42
ATACACTA: 0.231
AATATGGG: 0.262
AGGACCGA: -0.0849
TTAGACAA: 0.21
AGACATGC: 0.0202
GCCCCAAA: -0.171
AGATTGGG: 0.17
CGCCTCCG: -0.284
ACCAGGAA: -0.118
CCTCTCCC: -0.207
GCCCAAAC: -0.189
ACAACTTC: 0.107

Set 3
Target: UBE2V1 UBC core domain (UniProt Q13404)
Method: yeast two-hybrid
Sample: yeast
Setting: mostly zero background
Reference: not given
Reading: higher = stronger interaction
Measurement: lacZ reporter activity
B1: PRKN RING domain (UniProt O60260); chain LIATNSRNITCITCTDVRSPVLVFQCNSRHVICLDCFHLYCVTRLNDRQFVHDPQLGYSLPCVAGCPNSLIKELHH
B2: Ltn1 RING domain (UniProt Q6A009); chain VDKRFEGVEDCMICFSVIHGFNYSLPKKACRTCKKKFHSACLYKWFTSSNKSTCPLCRETFF
B3: ZNRF3 RING domain (UniProt Q9ULT6); chain DTLSSSSTSDCAICLEKYIDGEELRVIPCTHRFHRKCVDPWLLQHHTCPHCRHNIIEQKGNP
B4: DTX1 RING domain (UniProt Q86Y01); chain QKVKNPPDEDCTICMERLVTASGYEGVLRHKGVRPELVGRLGRCGHMYHLLCLVAMYSNGNKDGSLQCPTCKAIYGEKTGTQ
B5: TRIM22 RING domain (UniProt Q8IYM9); chain KEVKMSPQEGQKRDVCEHHGKKLQIFCKEDGKVICWVCELSQEHQGHQTFRINEVVKECQEK
B6: RNF181 RING domain (UniProt Q9P0P0); chain VIRGSQAELKCPVCLLEFEEEETAIEMPCHHLFHSSCILPWLSKTNSCPLCRYELPTDDDTY
B7: RNF24 RING domain (UniProt Q9Y225); chain KVKELNLHELCAVCLEDFKPRDELGICPCKHAFHRKCLIKWLEVRKVCPLCNMPVLQLAQLH
B8: RNF135 RING domain (UniProt Q8IUD6); chain PVWLAEDDLGCIICQGLLDWPATLPCGHSFCRHCLEALWGARDARRWACPTCRQGAAQQPHLR
B9: TRIM48 RING domain (UniProt Q8IWZ4); chain ISQVFQRELTCPICMNYFIDPVTIDCGHSFCRPCFYLNWQDIPILTQCFECIKTIQQRNLKT
Residues (chain): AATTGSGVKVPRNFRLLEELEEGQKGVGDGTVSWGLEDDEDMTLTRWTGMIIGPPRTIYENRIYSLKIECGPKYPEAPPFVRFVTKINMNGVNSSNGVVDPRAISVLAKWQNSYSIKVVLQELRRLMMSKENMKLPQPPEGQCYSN
ALDRLEKLLRCSRCTNILREPVCLGGCEHIFCSNCVSDCIGTGCPVCYTPAWIQDLKI (BARD1 RING domain (UniProt Q99728)): 0
B1 (PRKN RING domain): 0
B2 (Ltn1 RING domain): 0
B3 (ZNRF3 RING domain): 0
KEQLEKHNDICAICYQDMKSAVITPCSHFFHAGCLKKWLYVQETCPLCHCHLKNSSQLP (RNF145 RING domain (UniProt Q96MT1)): 0
MDDQGCPRCKTTKYRNPSLKLMVNVCGHTLCESCVDLLFVRGAGNCPECGTPLRKSNFRV (MNAT1 RING domain (UniProt P51948)): 0
B4 (DTX1 RING domain): 0
NTAPSLTVPECAICLQTCVHPVSLPCKHVFCYLCVKGASWLGKRCALCRQEIPEDFLDK (RNF146 RING domain (UniProt Q9NTX7)): 0
B5 (TRIM22 RING domain): 0
B6 (RNF181 RING domain): 0
KLWDINAHITCRLCSGYLIDATTVTECLHTFCRSCLVKYLEENNTCPTCRIVIHQSHPLQ (PCGF3 RING domain (UniProt Q3KNV8)): 0
B7 (RNF24 RING domain): 0
KITELNPHLMCVLCGGYFIDATTIIECLHSFCKTCIVRYLETSKYCPICDVQVHKTRPLL (BMI1 RING domain (UniProt P35226)): 0
B8 (RNF135 RING domain): 0
QLRRLQEERTCKVCLDRAVSIVFVPCGHLVCAECAPGLQLCPICRAPVRSRVRTF (BIRC7 RING domain (UniProt Q96CA5)): 0
B9 (TRIM48 RING domain): 0

Set 4
Target: RING finger protein unkempt homolog, zinc fingers 1-6, GST-SBP tag (UNK, Homo sapiens, UniProt Q9C0B0, residues 30-357)
Sequence of UniProt Q9C0B0 (30-357, looked up): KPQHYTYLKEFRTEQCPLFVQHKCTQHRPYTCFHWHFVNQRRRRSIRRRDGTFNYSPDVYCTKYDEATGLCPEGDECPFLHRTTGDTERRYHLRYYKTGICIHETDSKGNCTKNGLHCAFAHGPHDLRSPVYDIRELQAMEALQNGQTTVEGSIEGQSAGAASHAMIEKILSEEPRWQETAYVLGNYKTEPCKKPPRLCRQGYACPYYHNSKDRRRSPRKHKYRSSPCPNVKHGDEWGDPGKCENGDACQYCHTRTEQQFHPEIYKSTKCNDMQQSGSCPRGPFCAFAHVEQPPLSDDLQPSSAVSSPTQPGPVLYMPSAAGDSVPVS
Method: RNA Bind-n-Seq
Form: RNA
Sample: in vitro
Tested at: not given
Setting: RNA with constant flanks, ends assumed
Reference: input RNA pool
Reading: higher = stronger binding
Measurement: bound/input enrichment
All sequences stand within: GGGAGUUCUACAGUCCGACGAUC … CAACAGAGGAUUGAGCAUCA
UGUUUUCAUGCCCGGCCUUUGUUCCUCCAUAAAUGUGUCCUUUAGUUUCAAACAGAUCUUUACCGUUCGUGCUUCAUAAGCCAAUUCUUAUUAUUAUUUUUGGGGGACUCUUCUUCAAAG: 2.51 ratio
CAAAAGAUCCUGGCUAACUGUUCUUCUCCCUACCAUGUAGAUCUGUUGGGUAUAGCAGACCCCGCGCACUUACUCCUGUUCAAGGAGCACCUCCAUGUCUUCUGGGAUGGACUCCUCUGG: 0.2 ratio
CACCACCACCACCACCACCCGUGCAGUUUCACAUGGAAGCUUGUACCUGUGUUACCUCUGCCGUAAGUUGCAUGUGCGAAGUAUAACCAAAGCGAUCAUGUUUAUGUUGACCCUGCCAUA: 0.302 ratio
UGUAGAGCGAAUGUAUACCUGCUUCCCACAGGGGAGAUAGUUUAUUUUAUCGCCUCAGUGGCCGUCCUGUUUAAUUAUGAGGAGAGGACUCAGCGACACUACCUGGGUCAUACAGACUGU: 0.901 ratio
GACUGAUUCUCAACUGAACAUUAUGUCGUUACUUUGAUAAGCAUUCCACUUUUGUUAUUUAUCCGUGCUAUCUUUUUUUUUUACGUGUUAAAUCUUGUGAUUAUUAAAAUAAAGUACCAU: 0.213 ratio
GGUCCCGCCUGUGGCAGCAUCCUUGGGCCAGGGCCACAGCCGAUAUCUUAUACGACCUGUGUUCCGGACAUUUUUUAAAUCAUUGUGUCUAAGCAUCUCAGAGUCAAGUGUGCUUCUUUG: 0.127 ratio
GGAGGCUAUGGAGGCUAUGAUGAUUACAAUGGCUAUAAUGAUGGCUAUGGAUUUGGGUCAGACCGAUUUGGAAGAGACCUCAAUUACUGUUUUUCAGGAAUGUCUGAUCACAGAUACGGG: 0.15 ratio
GUGGACACACAACAUUUAAUUAAACAAUUAAGGCAGCAUUUUGCUAUGCUCUGAUUGUUCCUCCGACCACAUAUGUUCUUAUGAAGCAGCAUUAUGCAAGGGGAAAAAAGCACUAUGUCU: 0.375 ratio
ACAAGUGAAGAGGGAUCUGGAGACUUGGAUAAUCUAGAUGCUAUUCUUGGUGAUCUGACCCGUUCUGACUUUUACAAUAAUUCCAUAUCCUCAAAUGGUAGUCAUCUGGGGACUAAGCAA: 0.117 ratio
AAUUUGUUGUCAGCAAGCAAAUUAUAUAACAAUAUCACCUUUGAAGAACUUGGAGCUCUUUCCGAGAUCCCUGCAGCUAAGGCAGAAAAGAUAGCAUCUCAGAUGAUAACGGAAGGACGC: 0.398 ratio
GUCAGGACCUGGGUGGGUGGUCCUGAAUGCUUGGCUGGUGGGUUUGGGAGGAUGUGGAGCUACCGAGGCCUACUCUGCUUCCUAGGUCUCGAAGUCCUCGGAAGCCAAUAGACUCCCUUC: 0.309 ratio

Set 5
Target: RNA binding protein fox-1 homolog 2, RRM domain, GST-SBP tag (RBFOX2, Homo sapiens, UniProt O43251-10, residues 100-194)
Method: RNA Bind-n-Seq
Form: RNA
Sample: in vitro
Tested at: 365 nM
Setting: natural RNA segment, single round, ends assumed
Reference: no-protein control
Reading: higher = stronger binding
Measurement: RBNS enrichment (R)
All sequences stand within: GGGAGUUCUACAGUCCGACGAUC … UGGAAUUCUCGGGUGCCAA
Target sequence (chain): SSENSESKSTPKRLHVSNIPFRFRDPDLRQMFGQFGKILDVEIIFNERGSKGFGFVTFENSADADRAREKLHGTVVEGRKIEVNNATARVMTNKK
CCUACAACAUUUUUUUAACCCCAAAAUUAUAGCCUGAAUGUUCGCUUUUAGUCUGGCCAGGGAUCUGACUCCUGAGUUGGUUGCCUCUCCCCUGCUCACUCCAGUCACAU: 1
GUCUCCACCGAAUCCAUUUAGAGAAAUGUCAGAGCGAGGGUUGUGUGGACACCCCUCGCUCUGAUGCCAACUGCAGAUAAUACACACCUCCUGCAGCGUCCAGCCACGGC: 0.479
UUCUAAAUUGUAGGAGCAGGAUGGAAAUACUUUGCUGCCCUUGCCAUCUUUUAGGAUGGGCCCCCAGGAGACUGAGGUCUUCCUGGGCCCUCAUUGCUGCUUAUCGUACC: 0.223
AGGGGAGAGUCCUCAUCUGCUGGCAUUUUGUGGGGUGUUAGUGCCAAACUUGAAUAGGGGCUGGGGUGCUGUCUUCCACUGACACCCAAAUCCAGAAUCCCUGGUCUUGA: 0.858
CCUGGCAGGAAUGGAACUCCAUCAGGGAACAGGGCAGCUCUGUUUGAAUGGGGUGAAAAACAGCAAAAUUAAUUCUUAGCAAGCUCCUUGUUCUCUACUGUUCACCGGGA: 0.6
CGUGGUGUCCACCCGCCCCUCCUGGUGCCCACGGUGGAUACUGCAUGAUGUGAACCUUGGUUUUGAACUCUGUUCCUGCCCCUCCCCGACCGCCCCAGCCUGUGCCCGCC: 1.8
CAGAUACAUUCUGGCUUAUUUGAGAUACAUGAUUCUCUUAGAAUCCUGUCCCUUGGUUCAGGAAAGUAGCUUGGAAAAGGAGUAGGGGUAUAGCUUGGGUCCCUUUUCCU: 0.639
GUCCCUUUAAGAUUUUUUUAUUCUAAACAAAAUAAAGAAAAUCCUGCUGCUCUGGUCCUUGUGAUAAGCCUCUCUUCGGCAUCUGAGGAGCAGCUGCAGCAAAAUCUAGG: 0.36
UGUGCUUUCUUAAUGUGUGUGCCAAUGGUGGAUCUUUGCUACUGAAUGUGUUUGAACAUGUUUUGAGAUUUUUUUAAAAUAAAUUAUUAUUUGACAACAAUCCAAAAAAA: 1.5
GGGGGGUGAGAAGACAAGAUGAAGAAAAGCCUUACAUUUCAGUUUCUUCAUCGGUUGGAUUGGAUGCUUACAGGGUUUUUCUUGUAACAUUUAUAAGUGCUGCUUACAUC: 0.5
GCAAGAUAUUAAAAUGUAUUUCUAAAUCCUCCUUGGUUUCAAUCAUGAAUAAACUUAUUAGCAAUUUAAAAUGUUGUUUGAAAUAAUUUGCAGGUACUUUAUAGAUUCUG: 0.475
ACACCUCUGGUUUUUCAAUACCAAUUACAUGGAACUUUUCUGUAAUGGGUACAAUGAAGAAGUUUCUAAAAACACACACAAAGCACAUUGGGCCAACUAUUUAGUAAGCC: 0.549

A few entries again (set 2):
ATTGCAGA: 0.216
CCATCTTA: -0.0633
CGACAACC: -0.222
GACCTTAC: -0.0346
CTCGAGGC: -0.245
ACTCTGGG: -0.216
GACTGAAC: -0.126
GCGGGTCA: -0.263
AGTACTTA: 0.111
AACAGACG: -0.0807
ACTCTACG: -0.114
